Measurements from different studies.
Numbered parts are unrelated; each lists some results of a single study. Positions count from the first letter of the parent shown.

Study 1
Target: POU, POU domain (Salpingoeca helianthica)
Method: Spec-seq
Molecule type: double-stranded DNA, one strand shown
Medium: in vitro
Concentration: not given
Notes: whole probe, mean of replicates
Relative to: not given
Direction: lower = stronger binding
All sequences stand within: GAGTCGTCTCGTCAGCAC … CCGTAGAGCACTCAGGTC
Residues (chain): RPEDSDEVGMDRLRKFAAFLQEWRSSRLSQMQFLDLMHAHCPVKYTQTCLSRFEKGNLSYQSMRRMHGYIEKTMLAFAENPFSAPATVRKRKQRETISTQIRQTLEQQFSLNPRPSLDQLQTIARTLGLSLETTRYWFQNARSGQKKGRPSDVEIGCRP
Under “relative binding energy”, `ATGCAGCC` is recorded as 1.35 ln ratio.
`ATGCTAAC` — result for “relative binding energy”: 0.72 ln ratio.
`ATGCTCTT` — result for “relative binding energy”: 1.31 ln ratio.
For `ATGCCTGT`, “relative binding energy” read 1.14 ln ratio.
`ATAGCCAT`: “relative binding energy” 1.39 ln ratio.
Under “relative binding energy”, `CTCATAAT` is recorded as 0.103 ln ratio.
`ATACATAT`: “relative binding energy” 1.13 ln ratio.
Under “relative binding energy”, `ATGCTATG` is recorded as 1.12 ln ratio.
`ATCATAAT` — result for “relative binding energy”: 0.397 ln ratio.
`ATTAAGAT` — result for “relative binding energy”: 0.401 ln ratio.
`ATATCGAT`: “relative binding energy” 1.03 ln ratio.
`ATTGTTAT` — result for “relative binding energy”: -0.775 ln ratio.

Study 2
Target: ABI1, truncated, D143A, DHFR fusion (Arabidopsis thaliana)
Method: DHFR PCA, deep sequencing
Medium: yeast
Notes: methotrexate growth selection, single substitutions
Together with: (+)-ABA 17 µM
Relative to: wild-type fitted maximum
Direction: higher = stronger binding
Starting sequence: PYL1, truncated, DHFR fusion (Arabidopsis thaliana); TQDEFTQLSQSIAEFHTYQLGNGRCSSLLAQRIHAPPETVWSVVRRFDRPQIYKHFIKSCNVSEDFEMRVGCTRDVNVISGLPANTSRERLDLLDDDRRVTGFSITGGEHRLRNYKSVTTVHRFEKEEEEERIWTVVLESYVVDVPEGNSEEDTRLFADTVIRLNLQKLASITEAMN; partner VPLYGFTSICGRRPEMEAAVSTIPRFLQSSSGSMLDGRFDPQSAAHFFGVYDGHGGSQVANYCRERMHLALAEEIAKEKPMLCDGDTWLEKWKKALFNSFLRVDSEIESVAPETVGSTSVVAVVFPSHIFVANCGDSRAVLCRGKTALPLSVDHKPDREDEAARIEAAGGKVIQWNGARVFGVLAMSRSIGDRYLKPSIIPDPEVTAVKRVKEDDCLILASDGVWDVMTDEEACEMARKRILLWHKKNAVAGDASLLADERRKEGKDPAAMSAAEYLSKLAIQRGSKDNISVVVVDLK
`L93V` — result for “relative binding score”: 99.3%.
Under “relative binding score”, `E131C` is recorded as 85.6%.
`E38N`: “relative binding score” 58.2%.
`S26K` — result for “relative binding score”: 58.4%.
For `T6C`, “relative binding score” read 82.4%.
Under “relative binding score”, `E64P` is recorded as 87.8%.
`L169C` — result for “relative binding score”: -0.631%.
`V100C`: “relative binding score” 68.4%.
For `C60P`, “relative binding score” read 0.892%.
Under “relative binding score”, `V137T` is recorded as 6.58%.
`E151S` — result for “relative binding score”: 82.6%.
For `Q7K`, “relative binding score” read 85.4%.
`E128I` — result for “relative binding score”: 76.6%.
Under “relative binding score”, `L164K` is recorded as 62.3%.
`I162K` — result for “relative binding score”: 2.88%.
For `G108N`, “relative binding score” read 0.414%.
`C25Q`: “relative binding score” 8.55%.

Study 3
Target: Interferon regulatory factor 7, full length, phosphomimetic (IRF7, Homo sapiens, UniProt Q92985, residues 1-503, S471D/S472D/S475D/S476D/S477D/S483D/S484D/S487D)
Method: protein-binding microarray
Molecule type: double-stranded DNA, one strand shown
Medium: in vitro
Concentration: 2200 nM top
Notes: 60-bp whole probe
Together with: salmon DNA 0.4 mg/ml
Relative to: random background probes
Direction: higher = stronger binding
All sequences stand within: GCCTAGCAC … GTCTTGATTCGCTTGACGCTGCTG
Construct (chain): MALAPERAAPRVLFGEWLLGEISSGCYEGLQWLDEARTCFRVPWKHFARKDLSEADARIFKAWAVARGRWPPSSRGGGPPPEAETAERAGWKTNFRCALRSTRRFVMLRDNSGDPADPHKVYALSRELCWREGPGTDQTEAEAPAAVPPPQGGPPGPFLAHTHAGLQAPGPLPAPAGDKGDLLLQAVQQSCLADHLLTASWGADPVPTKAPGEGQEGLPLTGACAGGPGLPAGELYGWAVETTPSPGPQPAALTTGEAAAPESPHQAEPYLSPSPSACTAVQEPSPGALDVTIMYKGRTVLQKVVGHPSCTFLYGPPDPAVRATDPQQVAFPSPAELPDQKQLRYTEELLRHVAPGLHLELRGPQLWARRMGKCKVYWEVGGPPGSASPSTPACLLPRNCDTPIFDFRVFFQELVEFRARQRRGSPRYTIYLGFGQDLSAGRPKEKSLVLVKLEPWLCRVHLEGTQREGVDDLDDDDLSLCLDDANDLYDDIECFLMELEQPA
`TTAGGTATCGGTTCCGGTTAGTGCTAG`: “fitted relative affinity” 2.09 z-score.
`CTAATTAGAATTTTCATTAAGTGCTAG`: “fitted relative affinity” 0.106 z-score.
Under “fitted relative affinity”, `TTAGGTCACCTTATCCTTTAGTGCTAG` is recorded as 0.612 z-score.
For `GCCGATTTCAGTTTCGAGACGTGCTAG`, “fitted relative affinity” read 6.33 z-score.
For `GACGATTCCAGTTCCGAGACGTGCTAG`, “fitted relative affinity” read 1.29 z-score.
`GACGGTCTCGGTCTCGGGATGTGCTAG` — result for “fitted relative affinity”: -0.0413 z-score.
`GGCGATATCGGGTATCGAGACGTGCTA` — result for “fitted relative affinity”: -0.379 z-score.
`TTAGAACTGGGGTATCGATAAGTGCTA` — result for “fitted relative affinity”: -0.273 z-score.
`GACGATCTCAGTCTTGAGACGTGCTAG` — result for “fitted relative affinity”: 0.0817 z-score.
For `TCAGCTCACGCTTTGGAACTGTGCTAG`, “fitted relative affinity” read 0.593 z-score.
`TCATTTTTTAATTGAGAACTGTGCTAG` — result for “fitted relative affinity”: 0.74 z-score.
`GACGGTTTGGACTATCGGGACGTGCTA`: “fitted relative affinity” 0.379 z-score.

Study 4
Target: Histone acetyltransferase KAT6A, winged helix 1, GST fusion (KAT6A, Homo sapiens, UniProt Q92794, residues 1-85)
Method: protein binding microarray
Molecule type: double-stranded DNA, one strand shown
Medium: in vitro
Concentration: not given
Notes: 8-mer, flanks averaged, mean of 2 arrays, mostly near background
Relative to: not given
Direction: higher = stronger binding
Construct (chain): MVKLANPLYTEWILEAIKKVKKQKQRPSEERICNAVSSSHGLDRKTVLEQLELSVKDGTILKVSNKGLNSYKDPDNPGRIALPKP
For `CTACCCTA`, the E-score was -0.0358.
The E-score of `CCCGGTGA` is reported as 0.144.
The E-score of `AGCGCCAC` is reported as 0.266.
The E-score of `GACACAAA` is reported as -0.0812.
`AGCCCCAT` has an E-score of -0.122.
`CGCTTAGA` gave an E-score of 0.117.
With `AGTGTACG` the E-score was 0.163.
For `AGAGATAC`, the E-score was -0.0857.
With `AAGGGACA` the E-score was 0.00942.
With `ATGGCGTA` the E-score was 0.158.
`ATCAGCGG` has an E-score of 0.288.
With `AAAAGCGG` the E-score was 0.315.
`CATGCCTC` has an E-score of 0.165.
With `CGGACATA` the E-score was 0.213.
With `GTCCGGAC` the E-score was 0.34.
With `CGGCTAAA` the E-score was 0.167.
The E-score of `CGCCGCAC` is reported as 0.427.

Study 5
Target: RNA binding protein fox-1 homolog 2, RRM domain, GST-SBP tag (RBFOX2, Homo sapiens, UniProt O43251-10, residues 100-194)
Method: RNA Bind-n-Seq
Molecule type: RNA
Medium: in vitro
Concentration: 365 nM
Notes: natural RNA segment, single round, ends assumed
Relative to: no-protein control
Direction: higher = stronger binding
All sequences stand within: GGGAGUUCUACAGUCCGACGAUC … UGGAAUUCUCGGGUGCCAA
Construct (chain): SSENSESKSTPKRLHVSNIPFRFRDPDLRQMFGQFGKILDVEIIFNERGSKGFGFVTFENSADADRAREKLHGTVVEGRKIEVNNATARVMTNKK
For `AAUACUGAAUUCAGUUAUCUCACCUGACUGCUUUCCUGCCCUCAGACCUGGACACUGGGCCUCAGCCCCUGGCCGUGUGGAAUCCAUGGGAUCCUCGGGACUCCCCAGAC`, “RBNS enrichment (R)” read 0.25.
`AAACUAUACACACUGCCCCCGACUCCAUGCAGUCUUGAGUGCCCUAAGUUGUCAGCCCAACAGAGUUUGGUAGACCUUGGGGGUCCCUGGCUUAUCUCUCCACCCCAAAC`: “RBNS enrichment (R)” 0.637.
Under “RBNS enrichment (R)”, `UAAAAAUGGAUAGAAAAUAAAAAUAUAAGUUAGUAUGGUUUAAUUCUGAAAAUACAAAUUAUCUUCCUUUAAGAAACCUACCAUUAAGCCAGGUGUGGAUUGACACACCU` is recorded as 0.832.
For `UUCUGAUGAGCCUGUAGAGAAGCCUAGAGAGCCCCGGGCCAUCUGAUGAUGUCACCAGUGCUGCCUCAGAUGAUACAGAGACAGGGAGUUUCAGGUGAACUUCUUCAGCA`, “RBNS enrichment (R)” read 0.491.
`GAGUCUUUGAGCCUACGAGUCAUGCCACCAGCCAUAAGUUGACCUAUCACUUGAGAACCUCCUCAGCAAAGAUGCCAGAAAACAUUCAAUCAAGUUGGCAAAUGACACAG` — result for “RBNS enrichment (R)”: 0.331.
`CCAUCACUGUAAUUUAUGGCCCCCGCCGUGGGGCAGCCUAGCCCUUGUGUCUGUGUAUAUACUGUGCCUUUUCUCCUUGUCGAGGGGUGGGAGGGGUUGGUUUUUCACUG` — result for “RBNS enrichment (R)”: 0.317.
`UCCUUUUUCUAUAUCCCCUUAGUCCAGCCUCUCUUCUCAGACAUUUAGCUAUCUGCCUCUUUCCUUUAGCUGGGAAAGUGAGAGCUGGCAUACUAUGCAGUUUUUAUGUU`: “RBNS enrichment (R)” 1.33.
`ACUGUGCAUAGGGUAUCCGUUUCAGAGCCUGGUGUUGUGCUAUUUAGAUGUUUGUCUUGCACAACAUUGGCAUGAUUUUUCCGGGAGUUUCAUCAGAUCUGAUUUCUGAG`: “RBNS enrichment (R)” 0.393.

Excerpt of the above (study 2):
Under “relative binding score”, `L164K` is recorded as 62.3%.
Under “relative binding score”, `V137T` is recorded as 6.58%.
`I162K` — result for “relative binding score”: 2.88%.
For `Q7K`, “relative binding score” read 85.4%.
`C25Q`: “relative binding score” 8.55%.
`E151S` — result for “relative binding score”: 82.6%.
`L93V` — result for “relative binding score”: 99.3%.
`V100C`: “relative binding score” 68.4%.
